Results gathered from unrelated publications.
Every numbered part comes from another study and shows a few of its results, in no order.

Block 1 — technique: RNA Bind-n-Seq; form: RNA; medium: in vitro; tested at: 365 nM; relative to: no-protein control; reading: higher = stronger binding
Target: RNA binding protein fox-1 homolog 2, RRM domain, GST-SBP tag (RBFOX2, Homo sapiens, UniProt O43251-10, residues 100-194)
Setting: natural RNA segment, single round, ends assumed
Target sequence (chain): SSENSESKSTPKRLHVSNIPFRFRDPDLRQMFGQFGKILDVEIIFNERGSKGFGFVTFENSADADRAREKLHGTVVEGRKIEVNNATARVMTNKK
For `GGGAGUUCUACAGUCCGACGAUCGCAUCUGCUUACCUCAUGGCGCUGUUUGUUUCAGAUUUUGAAAGCUCACAGGUGUUUGUUGGAAUCAUUUGCCGAGUCAUUUCCUCAAAUCAUAUUCCAUUGUGUCAGUUUGGAAUUCUCGGGUGCCAA`, “RBNS enrichment (R)” read 0.566.
`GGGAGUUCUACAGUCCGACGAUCAGAUGGUCUUUCUGUGGAGAAUUUGUGGAACUUUAGUGUGGAGAACAAAGAAGGAGUUGGAGAUGAAAAAGUGGUACUGUGUCAAGGGAAGAUUUUUGUGAGUUUUCCAUUGGAAUUCUCGGGUGCCAA`: “RBNS enrichment (R)” 1.49.
`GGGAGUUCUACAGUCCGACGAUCAGAACUUUGUUUCAGCGUGACUCUCCCACCCUGCCCCAAGUUGAAUGUUCCCUUCACAUUGAAUCAAAUACAAAUCAGCACAGAUACUGUUUCCAGUUUUUAAAAAUGUAUGGAAUUCUCGGGUGCCAA` — result for “RBNS enrichment (R)”: 0.81.
Under “RBNS enrichment (R)”, `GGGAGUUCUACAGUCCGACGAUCACUUGUGAGAAUCAGGAAAGAAUUCCUCGAGUUGCUUUGCAUCCUCUUGGACCAGGGCUUGCAAGGCGAUUUGGGUUUCUGUGAGCUUGCCCAGUUGACCCGAAAAAUAGUGGAAUUCUCGGGUGCCAA` is recorded as 0.702.
`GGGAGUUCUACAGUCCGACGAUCAAAUUUCAACAAAUUGUCUUUGAGUCAGAAAAGUUAGAUAAUUCUUCAACUGUUUGAAAUAAUGCUCUCUGGGAGGCCAACAUUCCAAGAAUGUAUGAAGAACUGAAACCUGGAAUUCUCGGGUGCCAA`: “RBNS enrichment (R)” 0.385.
`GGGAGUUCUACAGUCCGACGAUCAAACGUACUGCUGGUUGAAUAUCUGAGGUAAAUGAUGUUUAAUCAAGAUGCUACUUGUAUCUUUGUCCAUAAAUUGUAAAUAAUUUUAUGCACAUUAUACCAAAUCUUCCUGGAAUUCUCGGGUGCCAA` — result for “RBNS enrichment (R)”: 0.244.
`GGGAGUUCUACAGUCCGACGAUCCCUGGUAGAAACUAUUUCUGUUCCAGUCACAUUGCCAUCACUCUUGUACUGCCUGCCACCGCGGAGGAGGCUGGUGACAGGCCAAAGGCCAGUGGAAGAAACACCCUUUCUGGAAUUCUCGGGUGCCAA`: “RBNS enrichment (R)” 0.502.
`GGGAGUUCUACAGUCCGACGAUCACCUCACUACUACAUCUGUGAUGACUGGUUGUUCAAACACAAUGGAGUGUGUAAGGUAUAUGUUUUAUAAUUCAUAACCAUAGCCUCGAUCAUCAAGAAAUACUUUCGAAUGGAAUUCUCGGGUGCCAA` — result for “RBNS enrichment (R)”: 0.328.
Under “RBNS enrichment (R)”, `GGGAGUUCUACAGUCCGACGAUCGGCUUCACAUUGGGUCCUGGCCCGAGGAGCCUUGCUUCACUUACUUAGCCCCAGGCCUGGGCAGGGAUUUGGCCUUCCAGUGGAGUUUCCUGUACCCUGGUGUAGCUUUUUGGAAUUCUCGGGUGCCAA` is recorded as 0.347.

Block 2 — technique: RNA Bind-n-Seq; form: RNA; medium: in vitro; tested at: 100 nM; relative to: input RNA pool; reading: higher = stronger binding
Target: RING finger protein unkempt homolog, zinc fingers 1-6, SBP tag (UNK, Homo sapiens, UniProt Q9C0B0, residues 30-357)
Chain of UniProt Q9C0B0 (30-357, looked up): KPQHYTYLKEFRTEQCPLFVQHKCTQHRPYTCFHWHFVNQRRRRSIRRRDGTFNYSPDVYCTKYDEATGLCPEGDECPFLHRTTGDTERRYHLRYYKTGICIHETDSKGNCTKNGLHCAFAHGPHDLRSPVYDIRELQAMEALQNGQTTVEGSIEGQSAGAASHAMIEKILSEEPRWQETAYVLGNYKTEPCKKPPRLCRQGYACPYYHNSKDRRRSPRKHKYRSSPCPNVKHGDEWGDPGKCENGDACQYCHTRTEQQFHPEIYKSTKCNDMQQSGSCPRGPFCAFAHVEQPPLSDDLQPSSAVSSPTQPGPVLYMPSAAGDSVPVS
Setting: RNA with constant flanks, vertebrate orthologous sites, ends assumed
`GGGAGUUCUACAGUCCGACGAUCAAUGGUGGUUGUAUAUUCUCAAUUUGAUUUAUAUAAUGAAAAGAUUAAUUGCUUUGAAUCUGGGGACUGAAGUGGAGCAGCACAGGAUGGAUGAAUUGUGCCCUCCUGUGGGUUUUUUUUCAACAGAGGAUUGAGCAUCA` has a bound/input enrichment of 0.259 ratio.
For `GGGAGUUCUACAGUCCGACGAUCUCCUCAACUUGUUCUAGCUUGUGAUCCUUCAAAAUUGGGUCAGGCAUUAUUGCUAGGUACUAGAAAUUUUGCAUUUCUCUAUUGCCAUUGAUCAGAGAGACAGACAUUAAAACAGGAAUACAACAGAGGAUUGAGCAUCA`, the bound/input enrichment was 0.445 ratio.
With `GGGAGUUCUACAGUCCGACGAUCGUUUUUUCAUGAGACAUGUCUAUCUAGAGAAGUAGGUAAUCUUAUUGAUAUGAAAUAAUUUACCUAGCCUAAUUUUUAGGCAUUGUAUGUAAAGUAUUUAAAGUGAAUUUGAAAAAAAAACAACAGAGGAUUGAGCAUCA` the bound/input enrichment was 0.378 ratio.
`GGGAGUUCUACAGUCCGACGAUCCCCACACGCCGCUCCAGCUGCCUCGGGAGAGCCCUUCGCCUCUGGCUCUCCUUCCUGUGUUCAUUUUCCUCGGGGCCCUGACCCUGUUCAUCUCGUAUUUAUUUGUUCUUCACGCUGGCGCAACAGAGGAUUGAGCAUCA` gave a bound/input enrichment of 0.736 ratio.
`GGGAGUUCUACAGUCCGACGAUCAUGCAUUAUUUUCCGACCAUUUUUAGGAAGUUUAUCAUCUUGUGAAUCUGUGUGUGCAUGUGUGUUUGUGUGUGUGUGUGUGUGAUUAGAAUAAAGAACUAUGAUAUAAAGUGUAUAUUUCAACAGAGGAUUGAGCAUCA` has a bound/input enrichment of 1.02 ratio.
With `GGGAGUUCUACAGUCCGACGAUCGGCUCCUCCUAUGAGCGAGAGUUUGGGAGGAGCCCACGAUGACCCUCAGCUAUUCCAAUCCAGUCUUUUCUUUUUUAAAAUUAGUGUAUUUAUUAUGACGAUGAUGACUCCCUGGUGCACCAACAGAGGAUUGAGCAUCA` the bound/input enrichment was 1.29 ratio.
With `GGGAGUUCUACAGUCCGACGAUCAUGUGCCUGUGCAGUCAUUAGAGUGGGUUCUUCCUUCUCCUGUGAGGAAAAAAGCCCAAAGAGAUUUCUUACACAUCUGACUAUACUGUUGUUUUUAUUCUUUUAUUGUUUUUACAUAUGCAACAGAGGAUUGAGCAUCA` the bound/input enrichment was 0.813 ratio.
`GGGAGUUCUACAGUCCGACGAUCGCAAAGGAAAAGCAGCCCUUCUCCCAGCCCCCCUUUCGCUAGGAGAUACAAACGUUACCGUAGAAGAGCAAUUAAACUCAAUACAUUUAUCUUUUCAGGAUGAUCCAGACUCCAGUACCACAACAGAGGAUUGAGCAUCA` has a bound/input enrichment of 0.683 ratio.

Block 3 — technique: protein-binding microarray; form: double-stranded DNA, one strand shown; medium: in vitro; tested at: 250 nM; setting: 60-bp whole probe; with: salmon DNA 0.4 mg/ml; relative to: random background probes; reading: higher = stronger binding; constant ends, left off below: GCCTAGCAC … GTCTTGATTCGCTTGACGCTGCTG
Target: Interferon regulatory factor 7, full length, phosphomimetic (IRF7, Homo sapiens, UniProt Q92985, residues 1-503, S101K/S471D/S472D/S475D/S476D/S477D/S483D/S484D/S487D)
Construct (chain): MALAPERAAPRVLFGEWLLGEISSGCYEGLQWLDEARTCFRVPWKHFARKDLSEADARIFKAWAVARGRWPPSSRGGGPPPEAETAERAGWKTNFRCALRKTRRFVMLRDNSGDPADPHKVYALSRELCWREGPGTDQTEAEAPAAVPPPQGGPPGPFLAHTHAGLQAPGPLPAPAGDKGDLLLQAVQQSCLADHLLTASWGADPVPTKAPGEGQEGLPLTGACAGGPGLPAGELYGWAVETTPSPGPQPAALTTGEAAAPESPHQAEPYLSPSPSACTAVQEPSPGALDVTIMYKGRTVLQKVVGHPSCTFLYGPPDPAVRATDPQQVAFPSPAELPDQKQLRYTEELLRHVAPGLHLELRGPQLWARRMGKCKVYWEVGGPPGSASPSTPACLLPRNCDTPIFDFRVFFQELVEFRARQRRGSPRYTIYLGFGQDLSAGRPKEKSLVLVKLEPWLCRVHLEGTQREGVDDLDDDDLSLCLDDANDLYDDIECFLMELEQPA
`TCATGTTTACATATGTTACTGTGCTAG` has a log fluorescence of 0.654 z-score.
`TACATTTTCCAAATGCCCCTGTGCTAG` gave a log fluorescence of 1.26 z-score.
With `AATTCTTTGCTCATTTTTCAGGTGCTA` the log fluorescence was 0.345 z-score.
`GACGGACTGGACAATGGGGACGTGCTA` gave a log fluorescence of -0.768 z-score.
For `GACGAATTGAGTTTCGAGACGTGCTAG`, the log fluorescence was 3.71 z-score.
`TCATTTTTCATTGTTTTACTGTGCTAG` has a log fluorescence of 1.13 z-score.
For `TGTTTTTCATTTTTTTTCATGTGCTAG`, the log fluorescence was 2.92 z-score.
`GACGATTTCGGGACTGGAGATGTGCTA` has a log fluorescence of 0.225 z-score.
`TCTTTTTGCTTTCTTTTATGGTGCTAG` has a log fluorescence of 2.24 z-score.
For `TTAGATCTTAGTCTCGATTAGTGCTAG`, the log fluorescence was 2.05 z-score.
With `ACAGCAAGAGCTCAACGGGGGTGCTAG` the log fluorescence was -0.189 z-score.
With `GACGGTTTCGGGTACCGGGACGTGCTA` the log fluorescence was 6.14 z-score.
With `GACGGTTCACTTTTCCTGACGTGCTAG` the log fluorescence was 0.914 z-score.
`CTGGTCCTCCTGACTGGGGTGGTGCTA` gave a log fluorescence of -0.106 z-score.
The log fluorescence of `TCAATGATCCAGTTTTACACTGTGCTA` is reported as 0.0375 z-score.
With `GACGGTATCGGTTTCGGGTCGTGCTAG` the log fluorescence was 10 z-score.
`GCACCTCTAGACTCTAAATTCGTGCTA` gave a log fluorescence of 0.225 z-score.
`GACGGTACCCTTTTCCTGACGTGCTAG` has a log fluorescence of 1.15 z-score.
`TCATTTTTTTCTATATGACTGTGCTAG` gave a log fluorescence of 1.65 z-score.
With `TCAAGAATCACAACTAGGACTGTGCTA` the log fluorescence was 0.0764 z-score.
`TTAGATATCGGGTATCTATTAGTGCTA` has a log fluorescence of 0.164 z-score.
`TTAGTTTTCCTACTGCTTTAGTGCTAG` gave a log fluorescence of 1.43 z-score.
The log fluorescence of `TTAGGACTGGACTTTCGGTTAGTGCTA` is reported as 0.434 z-score.
`GACGATATCAGTCTCGAAACGTGCTAG` has a log fluorescence of 0.742 z-score.
`GAATGTGTCTTAAATAGGGCAGTGCTA` has a log fluorescence of -0.198 z-score.

Block 4 — technique: protein binding microarray; form: double-stranded DNA, one strand shown; medium: in vitro; tested at: not given; relative to: not given; reading: higher = stronger binding
Target: Histone acetyltransferase KAT6A, both winged helices, GST fusion (KAT6A, Homo sapiens, UniProt Q92794, residues 1-181)
Setting: 8-mer, flanks averaged, mean of 2 arrays, mostly near background
Target sequence (chain): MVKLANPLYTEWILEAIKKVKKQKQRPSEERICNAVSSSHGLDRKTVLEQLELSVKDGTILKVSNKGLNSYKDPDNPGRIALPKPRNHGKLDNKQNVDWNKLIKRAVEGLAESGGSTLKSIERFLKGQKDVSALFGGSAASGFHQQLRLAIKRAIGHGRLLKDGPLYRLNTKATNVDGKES
For `CACGAGGC`, the E-score was -0.191.
For `GAGATCCA`, the E-score was -0.079.
With `GCTCGAAA` the E-score was -0.0557.
The E-score of `ACACATTA` is reported as -0.133.
`AAATAACC` gave an E-score of -0.108.
`ACTCGTTA` has an E-score of 0.000215.
For `CCGGATAG`, the E-score was 0.144.
The E-score of `GAGAACCA` is reported as -0.163.
The E-score of `AGAAGGAG` is reported as -0.124.
The E-score of `CGCTAGCC` is reported as 0.0943.
The E-score of `AAACTTTC` is reported as -0.145.
`CGATCAAG` gave an E-score of 0.0544.
`CCCTAGCA` gave an E-score of -0.171.
`ACCATGCG` gave an E-score of 0.112.
For `GCTTCAAC`, the E-score was -0.0133.
With `CGAGCAAC` the E-score was 0.0795.
`ATTATACA` gave an E-score of -0.085.
With `TCACTTAA` the E-score was -0.114.
For `CCCCACCA`, the E-score was -0.177.
The E-score of `AAGTAAAC` is reported as -0.145.
With `AAAAGGCA` the E-score was -0.166.
For `TAAGGGTA`, the E-score was -0.19.
With `ACACGCTG` the E-score was 0.0366.
